Published values pooled from the literature.
Compare with care: the assays were run in different laboratories.
U2AF2: U2AF2 148-342 (Homo sapiens, UniProt P26368)
Chain of UniProt P26368 (whole entry, looked up): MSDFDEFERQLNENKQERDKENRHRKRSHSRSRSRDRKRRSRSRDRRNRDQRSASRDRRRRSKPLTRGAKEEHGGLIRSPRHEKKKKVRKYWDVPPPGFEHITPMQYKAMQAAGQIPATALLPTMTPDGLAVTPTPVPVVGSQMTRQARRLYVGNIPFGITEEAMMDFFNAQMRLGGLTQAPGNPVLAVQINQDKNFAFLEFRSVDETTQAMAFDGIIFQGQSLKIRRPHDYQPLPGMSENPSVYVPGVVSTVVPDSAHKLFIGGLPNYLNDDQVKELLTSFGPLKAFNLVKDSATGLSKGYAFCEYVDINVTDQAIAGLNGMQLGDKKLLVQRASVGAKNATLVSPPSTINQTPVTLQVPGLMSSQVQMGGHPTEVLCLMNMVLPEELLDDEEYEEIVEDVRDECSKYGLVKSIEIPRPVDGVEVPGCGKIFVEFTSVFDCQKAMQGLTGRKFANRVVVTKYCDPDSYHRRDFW
B1: human hexokinase-1; sequence looked up; chain MIAAQLLAYYFTELKDDQVKKIDKYLYAMRLSDETLIDIMTRFRKEMKNGLSRDFNPTATVKMLPTFVRSIPDGSEKGDFIALDLGGSSFRILRVQVNHEKNQNVHMESEVYDTPENIVHGSGSQLFDHVAECLGDFMEKRKIKDKKLPVGFTFSFPCQQSKIDEAILITWTKRFKASGVEGADVVKLLNKAIKKRGDYDANIVAVVNDTVGTMMTCGYDDQHCEVGLIIGTGTNACYMEELRHIDLVEGDEGRMCINTEWGAFGDDGSLEDIRTEFDREIDRGSLNPGKQLFEKMVSGMYLGELVRLILVKMAKEGLLFEGRITPELLTRGKFNTSDVSAIEKNKEGLHNAKEILTRLGVEPSDDDCVSVQHVCTIVSFRSANLVAATLGAILNRLRDNKGTPRLRTTVGVDGSLYKTHPQYSRRFHKTLRRLVPDSDVRFLLSESGSGKGAAMVTAVAYRLAEQHRQIEETLAHFHLTKDMLLEVKKRMRAEMELGLRKQTHNNAVVKMLPSFVRRTPDGTENGDFLALDLGGTNFRVLLVKIRSGKKRTVEMHNKIYAIPIEIMQGTGEELFDHIVSCISDFLDYMGIKGPRMPLGFTFSFPCQQTSLDAGILITWTKGFKATDCVGHDVVTLLRDAIKRREEFDLDVVAVVNDTVGTMMTCAYEEPTCEVGLIVGTGSNACYMEEMKNVEMVEGDQGQMCINMEWGAFGDNGCLDDIRTHYDRLVDEYSLNAGKQRYEKMISGMYLGEIVRNILIDFTKKGFLFRGQISETLKTRGIFETKFLSQIESDRLALLQVRAILQQLGLNSTCDDSILVKTVCGVVSRRAAQLCGAGMAAVVDKIRENRGLDRLNVTVGVDGTLYKLHPHFSRIMHQTVKELSPKCNVSFLLSEDGSGKGAALITAVGVRLRTEASS
B2: IL2 mature Y109A (Bos taurus, UniProt P05016); sequence looked up; chain APTSSSTGNTMKEVKSLLLDLQLLLEKVKNPENLKLSRMHTFDFYVPKVNATELKHLKCLLEELKLLEEVLNLAPSKNLNPREIKDSMDNIKRIVLELQGSETRFTCEADDATVNAVEFLNKWITFCQSIYSTMT
B3: SPOP R45W (Homo sapiens, UniProt O43791); sequence looked up; chain MSRVPSPPPPAEMSSGPVAESWCYTQIKVVKFSYMWTINNFSFCWEEMGEVIKSSTFSSGANDKLKWCLRVNPKGLDEESKDYLSLYLLLVSCPKSEVRAKFKFSILNAKGEETKAMESQRAYRFVQGKDWGFKKFIRRDFLLDEANGLLPDDKLTLFCEVSVVQDSVNISGQNTMNMVKVPECRLADELGGLWENSRFTDCCLCVAGQEFQAHKAILAARSPVFSAMFEHEMEESKKNRVEINDVEPEVFKEMMCFIYTGKAPNLDKMADDLLAAADKYALERLKVMCEDALCSNLSVENAAEILILADLHSADQLKTQAVDFINYHASDVLETSGWKSMVVSHPHLVAEAYRSLASAQCPFLGPPRKRLKQS
B4: human RAB8B; sequence looked up; chain MAKTYDYLFKLLLIGDSGVGKTCLLFRFSEDAFNTTFISTIGIDFKIRTIELDGKKIKLQIWDTAGQERFRTITTAYYRGAMGIMLVYDITNEKSFDNIKNWIRNIEEHASSDVERMILGNKCDMNDKRQVSKERGEKLAIDYGIKFLETSAKSSANVEEAFFTLARDIMTKLNRKMNDSNSAGAGGPVKITENRSKKTSFFRC
B5: mgtA 1-898 D441A (Escherichia coli, UniProt P0ABB8); chain MFKEIFTRLIRHLPSRLVHRDPLPGAQQTVNTVVPPSLSAHCLKMAVMPEEELWKTFDTHPEGLNQAEVESAREQHGENKLPAQQPSPWWVHLWVCYRNPFNILLTILGAISYATEDLFAAGVIALMVAISTLLNFIQEARSTKAADALKAMVSNTATVLRVINDKGENGWLEIPIDQLVPGDIIKLAAGDMIPADLRILQARDLFVAQASLTGESLPVEKAATTRQPEHSNPLECDTLCFMGTTVVSGTAQAMVIATGANTWFGQLAGRVSEQESEPNAFQQGISRVSMLLIRFMLVMAPVVLLINGYTKGDWWEAALFALSVAVGLTPEMLPMIVTSTLARGAVKLSKQKVIVKHLDAIQNFGAMDILCTDKTGTLTQDKIVLENHTDISGKTSERVLHSAWLNSHYQTGLKNLLDTAVLEGTDEESARSLASRWQKIAEIPFDFERRRMSVVVAENTEHHQLVCKGALQEILNVCSQVRHNGEIVPLDDIMLRKIKRVTDTLNRQGLRVVAVATKYLPAREGDYQRADESDLILEGYIAFLDPPKETTAPALKALKASGITVKILTGDSELVAAKVCHEVGLDAGEVVIGSDIETLSDDELANLAQRTTLFARLTPMHKERIVTLLKREGHVVGFMGDGINDAPALRAADIGISVDGAVDIAREAADIILLEKSLMVLEEGVIEGRRTFANMLKYIKMTASSNFGNVFSVLVASAFLPFLPMLPLHLLIQNLLYDVSQVAIPFDNVDDEQIQKPQRWNPADLGRFMIFFGPISSIFDILTFCLMWWVFHANTPETQTLFQSGWFVVGLLSQTLIVHMIRTRRVPFIQSCASWPLMIMTVIVMIVGIALPFSPLASYLQLQALPLSYFPWLVAILAGYMTLTQLVKGFYSRRYGWQ
B6: spo0J K252A/K255A/K259A (Bacillus subtilis, UniProt P26497); chain MAKGLGKGINALFNQVDLSEETVEEIKIADLRPNPYQPRKHFDDEALAELKESVLQHGILQPLIVRKSLKGYDIVAGERRFRAAKLAGLDTVPAIVRELSEALMREIALLENLQREDLSPLEEAQAYDSLLKHLDLTQEQLAKRLGKSRPHIANHLRLLTLPENIQQLIAEGTLSMGHGRTLLGLKNKNKLEPLVQKVIAEQLNVRQLEQLIQQLNQNVPRETKKKEPVKDAVLKERESYLQNYFGTTVNIARQAKKGAIEIEFFSNEDLDRILELLSERES
B7: Ph-p 1397-1577 (Drosophila melanogaster, UniProt P39769); sequence looked up; chain GVGSGETNGLGTGGIVGVDAMALVDRLDEAMAEEKMQTEATPKLSESFPILGASTEVPPMSLPVQAAISAPSPLAMPLGSPLSVALPTLAPLSVVTSGAAPKSSEVNGTDRPPISSWSVDDVSNFIRELPGCQDYVDDFIQQEIDGQALLLLKEKHLVNAMGMKLGPALKIVAKVESIKEV
B8: protein 2478-3541 (Micromonospora chalcea, UniProt A0A1Z1MZ77); sequence looked up; chain HPLLGGAVELPDRGGHVYPARLGVRHHPWLGEHALLGAAILPGAAYAELALWAGRRDGAGRIEELTLDAPLVVADESAAQLRLVVGPADAEGRRQLTVHSRADGADADTAWTRHAQGTLVPADADAAWSGEPGAPWPPAGAEPVEVAGLYDRFADRGYQYGPSFRGVRAAWRAGDTVYAEVALPVPQPGSPRFGVHPALLDAAFQAMSLGAFFPEDGQVRMPFALRGVSSSGVGADRLRVTISPAGAEAVRIACVDERGNPVVVIDSLVARAVPVEALTPGTPGIPGAGDGALHHVAWTARPEPGVAAVQRWAVVGAADPGLAGGLDRAGGLCGAYPDLAALVAAVAEGAALPDVVAVPVPSGAPVGPDAVRATVLGALDLIRAWLAVEGRLGLARLAFVTTSAVAVGDGTEHVDPVSAALWGLVRSAQSEEPGRFVLVDLDADPASASALPAALAAREPQLAVRAGAVHVPRLVRHRPRPDGPLTPPAGAAWRLAAGGQGTLEGLALVPAPDAEAPLTPGQVRVAVRAAGVNFRDTLIALGMYPGTPVLGAEGAGVITEVAPDVAGFAPGDRVLGMWTGGLGPVAVADARMLARVPRGWSYAEAASVPAVFLTAHYALTRLAGIRPGQSLLVHAGAGGVGMATLQLARHLGVEVYATASRGKWDTLRGLGLDDAHIADSRSLDFAGRFLAATGGRGVDVVLNSLAGDFVDASLRLLPRGGHFLELGKADVRDPDRIAADHPGVGYRAFDLVEAGPELVGQLLGELMELFAAGVLSPLPLTVRDVRRAREAFRLISQARHVGKVVLTMPPAFGAYGTVLVTGGTGTLGGAVARHLVARHGVRHLVLAGRSGPAADGASALVDELTASGASVTVVACDAADRVALRRLLDGIPAAHPLTAVVHAAGVLDDATITALTAGQVDAVLRPKADAVVNLHELTRDRELSAFVLFSSAAALFGSPGQGNYSAANGFVDAFAQYRRAQGLHAVSLAWGLWADSSRMAGHLDQEGMRRRMARGGVLPLTTDQGLALFDAAQLVDEALQVPIRLNVGALRAAGKVPALLADLV
B9: POL30 1-258 (Saccharomyces cerevisiae, UniProt P15873); chain MLEAKFEEASLFKRIIDGFKDCVQLVNFQCKEDGIIAQAVDDSRVLLVSLEIGVEAFQEYRCDHPVTLGMDLTSLSKILRCGNNTDTLTLIADNTPDSIILLFEDTKKDRIAEYSLKLMDIDADFLKIEELQYDSTLSLPSSEFSKIVRDLSQLSDSINIMITKETIKFVADGDIGSGSVIIKPFVDMEHPETSIKLEMDQPVDLTFGAKYLLDIIKGSSLSDRVGIRLSSEAPALFQFDLKSGFLQFFLAPKFNDEE
B10: dlg1 1-97 R39A/K42A (Drosophila melanogaster, UniProt P31007); sequence looked up; chain MPVKKQEAHRALELLEDYHARLSEPQDRALRIAIERVIAIFASRLFQALLDIQEFYELTLLDDSKSIQQKTAETLQIATKWEKDGQAVKIADFIKSS
B11: exbD 61-141 (Escherichia coli, UniProt P0ABV2); sequence looked up; chain EKPVYLSVKADNSMFIGNDPVTDETMITALNALTEGKKDTTIFFRADKTVDYETLMKVMDTLHQAGYLKIGLVGEETAKAK
B12: CRYAA R157Q (Homo sapiens, UniProt P02489); sequence looked up; chain MDVTIQHPWFKRTLGPFYPSRLFDQFFGEGLFEYDLLPFLSSTISPYYRQSLFRTVLDSGISEVRSDRDKFVIFLDVKHFSPEDLTVKVQDDFVEIHGKHNERQDDHGYISREFHRRYRLPSNVDQSALSCSLSADGMLTFCGPKIQTGLDATHAEQAIPVSREEKPTSAPSS
B13: comFB 1-98 D33A (Bacillus subtilis, UniProt P39146); chain MLVNSKEIVMKELLDRYMDQLHMACTCQVCQNAVLALSLNKVSPSYVTDFKKIAYTKAELVDKQKNTAMLVILAESAAVVSESPSDLCQTKQEEAFIN
Chain of UniProt Q10S82 (whole entry, looked up): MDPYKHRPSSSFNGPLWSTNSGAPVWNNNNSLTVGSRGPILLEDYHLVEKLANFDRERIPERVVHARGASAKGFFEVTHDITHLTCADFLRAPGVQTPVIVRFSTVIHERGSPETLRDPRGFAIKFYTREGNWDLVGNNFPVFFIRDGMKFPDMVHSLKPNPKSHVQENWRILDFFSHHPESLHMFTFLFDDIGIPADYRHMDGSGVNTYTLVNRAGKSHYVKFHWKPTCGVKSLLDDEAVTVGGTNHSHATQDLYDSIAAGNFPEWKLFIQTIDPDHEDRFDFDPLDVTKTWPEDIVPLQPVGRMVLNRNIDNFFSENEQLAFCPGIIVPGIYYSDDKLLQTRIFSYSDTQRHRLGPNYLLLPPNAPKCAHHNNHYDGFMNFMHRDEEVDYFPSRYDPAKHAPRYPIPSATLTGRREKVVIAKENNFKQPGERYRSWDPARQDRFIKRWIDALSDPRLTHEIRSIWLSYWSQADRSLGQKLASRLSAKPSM

`B1 (human hexokinase-1)`: “log2 fold change” 0.45 (CYB5R4 knockout human cells; PP4 interaction, 3xFLAG-PP4C IP-MS; concentration not given; relative to: CYB5R4 KO over parental).
For `B2 (IL2 mature Y109A)`, binding read “binds” (itself; SDS-PAGE).
Under binding, `B3 (SPOP R45W)` is recorded as “binds” (itself; negative-stain TEM).
For `OsCATC (Oryza sativa, UniProt Q10S82)`, binding read “binds” (itself; cross-linking).
`B4 (human RAB8B)` — result for “log2 fold change”: -2.14 (CYB5R4 knockout human cells; PP4 interaction, 3xFLAG-PP4C IP-MS; concentration not given; relative to: CYB5R4 KO over parental).
`B5 (mgtA 1-898 D441A)` — result for binding: “binds” (itself; native gel or EMSA).
For `UGUUGCCUU (ssRNA)`, the Kd was 6.75 µM (U2AF2; sequencing of bound RNA; RNA; motif only).
Under binding, `B6 (spo0J K252A/K255A/K259A)` is recorded as “binds” (itself; SEC-MALS).
`B7 (Ph-p 1397-1577)` — result for binding: “binds” (itself; AUC).
`B8 (protein 2478-3541)` — result for binding: “binds” (itself; X-ray crystallography).
For `B9 (POL30 1-258)`, binding read “binds” (itself; cryo-EM).
`B10 (dlg1 1-97 R39A/K42A)` — result for binding: “binds” (itself; SEC).
For `AAUUUUACA (ssRNA)`, the Kd was 8.02 µM (U2AF2; sequencing of bound RNA; RNA; motif only).
`B11 (exbD 61-141)` — result for binding: “binds” (itself; crystal structure).
Under binding, `YGQASQSYSGYGQTT (TAF15 28-42 (Homo sapiens, UniProt Q92804); N-acetyl/C-amide; sequence looked up)` is recorded as “binds” (itself; ThT fluorescence; peptide; peptide fibrils).
Under binding, `B12 (CRYAA R157Q)` is recorded as “binds” (itself; SEC-MALS; 1 hour h, pH 7.4, 37 °C).
`B13 (comFB 1-98 D33A)` — result for binding: “binds” (itself; SEC-MALS).

Excerpt of the above:
`B1 (human hexokinase-1)`: “log2 fold change” 0.45 (CYB5R4 knockout human cells; PP4 interaction, 3xFLAG-PP4C IP-MS; concentration not given; relative to: CYB5R4 KO over parental).
`B7 (Ph-p 1397-1577)` — result for binding: “binds” (itself; AUC).
